Results of several laboratories.
Numbered parts are unrelated; each lists some results of a single study. Substitutions count along the parent as printed.

Block 1 — method: protein binding microarray; form: double-stranded DNA, one strand shown; medium: in vitro; concentration: not given; baseline: not given; direction: higher = stronger binding; endpoint: E-score
Target: Histone acetyltransferase KAT6A, winged helix 1, GST fusion (KAT6A, Homo sapiens, UniProt Q92794, residues 1-85)
Notes: 8-mer, flanks averaged, mean of 2 arrays, mostly near background
Target sequence (chain): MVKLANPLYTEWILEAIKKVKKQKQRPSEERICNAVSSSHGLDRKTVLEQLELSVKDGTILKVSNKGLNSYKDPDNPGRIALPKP
Sequence = AACGTAGT; result = -0.0974
Sequence = CATACTCG; result = 0.181
Sequence = ACGTACTA; result = -0.153
Sequence = GCGGTACC; result = 0.4
Sequence = CCAACCAG; result = -0.0923
Sequence = ATTTACCA; result = -0.186
Sequence = CGCATAAC; result = 0.0345
Sequence = GTACATAC; result = -0.0643

Block 2 — target: CCND1, cyclin fold, Cln2 fusion (human); method: yeast growth competition, sequencing; medium: yeast; notes: weak parent motif; baseline: not given; direction: higher = stronger binding; endpoint: normalised enrichment score
Parent: GMNC docking peptide (human); KNAKRNLSSEFAN; partner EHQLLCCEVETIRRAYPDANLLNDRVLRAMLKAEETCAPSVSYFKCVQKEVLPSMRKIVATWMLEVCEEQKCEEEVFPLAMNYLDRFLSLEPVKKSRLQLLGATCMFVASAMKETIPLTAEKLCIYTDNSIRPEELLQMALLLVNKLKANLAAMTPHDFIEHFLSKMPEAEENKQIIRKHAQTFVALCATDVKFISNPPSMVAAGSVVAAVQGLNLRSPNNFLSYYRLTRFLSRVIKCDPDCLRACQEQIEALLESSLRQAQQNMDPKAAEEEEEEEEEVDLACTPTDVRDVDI
Substitution = A3G; result = 0.345
Substitution = A12K; result = 0.342
Substitution = E10F; result = 0.243
Substitution = A3M; result = 0.223
Substitution = E10C; result = 0.0722
Substitution = S8T; result = 0.271
Substitution = L7P; result = 0.182
Substitution = N6S; result = 0.494

Block 3 — target: JUN, bZIP domain (human); method: DHFR protein complementation; medium: yeast; baseline: wild-type JUN-FOS pair; direction: higher = stronger binding; endpoint: binding fitness
Notes: single substitutions, most at no-binding floor
Parent: JUN, bZIP domain (human); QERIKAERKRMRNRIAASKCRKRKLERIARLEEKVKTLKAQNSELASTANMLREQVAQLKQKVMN; partner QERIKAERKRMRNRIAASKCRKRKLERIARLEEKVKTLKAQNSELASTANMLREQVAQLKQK
Substitution = E33M; result = -0.316 natural log
Substitution = Q41R; result = -0.337 natural log
Substitution = A57L; result = -0.514 natural log
Substitution = L52W; result = -1.06 natural log
Substitution = T48M; result = -0.258 natural log
Substitution = S47V; result = -0.115 natural log
Substitution = Q58C; result = -0.248 natural log
Substitution = M51A; result = -0.063 natural log

Mixed results
SMILES = COc1cc2nccc(Oc3ccc(NC(=S)NC(=O)c4ccccc4C)cc3)c2cc1OC; target = Receptor tyrosine-protein kinase erbB-2 (ERBB2, Homo sapiens, UniProt P04626); read-out = enzyme activity; mode = inhibitor; concentration = 0.5 µM; baseline = control; endpoint = remaining activity; result = 102%

For quick reference, copied from above (block 1):
Sequence = CATACTCG; result = 0.181
